Measurements collected from several papers.
Protocols differ between the studies behind these lines.

SMILES | organism | test | test system | conditions | endpoint | value
N=C(N)NCCC[C@H](NC(=O)[C@H](Cc1c[nH]c2ccccc12)NC(=O)[C@H](CCCNC(=N)N)NC(=O)[C@H](Cc1c[nH]c2ccccc12)NC(=O)[C@H](Cc1c[nH]c2ccccc12)NC(=O)[C@H](Cc1c[nH]c2ccccc12)NC(=O)[C@H](CCCNC(=N)N)NC(=O)[C@H](Cc1c[nH]c2ccccc12)NC(=O)[C@@H](N)CCCNC(=N)N)C(=O)N[C@@H](Cc1ccccc1)C(N)=O | Candida albicans | broth microdilution | CGMCC 2.209, RPMI 1640-MOPS | 48 h, 30 °C, added: NH4Cl 6 µM | MIC | 8 µM
CCCCC[C@H](O)CC(=O)CCc1ccc(O)c(OC)c1 | human coronavirus OC43 | virus-induced cell killing | MRC-5 | screen | maximum inhibition | 17.7%
CC[C@H](C)[C@H](NC(=O)[C@H](CCCCN)NC(=O)[C@H](CCCCN)NC(=O)[C@H](Cc1ccccc1)NC(=O)[C@@H](NC(=O)[C@@H](NC(=O)[C@H](CCCNC(=N)N)NC(=O)[C@H](Cc1ccccc1)NC(=O)[C@@H](NC(=O)[C@H](CCCCN)NC(=O)[C@H](CCCCN)NC(=O)[C@@H](N)CCSC)[C@@H](C)CC)C(C)C)[C@@H](C)CC)C(=O)N[C@@H](CC(C)C)C(=O)N[C@@H](CCCCN)C(=O)N[C@@H](CCCNC(=N)N)C(=O)N[C@@H](CC(C)C)C(=O)N[C@H](C(=O)N[C@H](C(=O)O)C(C)C)[C@@H](C)CC | Staphylococcus aureus | broth microdilution | ATCC 25923 | 10% fetal bovine serum | MIC | 8 µg/mL
CC(C)[C@H](NC(=O)[C@H](CCCNC(=N)N)NC(=O)[C@H](Cc1c[nH]c2ccccc12)NC(=O)[C@H](CCCNC(=N)N)NC(=O)[C@H](Cc1c[nH]c2ccccc12)NC(=O)[C@H](Cc1c[nH]c2ccccc12)NC(=O)[C@H](Cc1c[nH]c2ccccc12)NC(=O)[C@H](CCCNC(=N)N)NC(=O)[C@H](Cc1c[nH]c2ccccc12)NC(=O)[C@@H](N)CCCNC(=N)N)C(N)=O | Candida albicans | – | CGMCC 2.209 | no added salts | MIC | 16 µM
CC1(C)SC2C(NC(=O)C(NC(=O)C3=C(O)C(c4ccccc4)NC3=O)c3ccccc3)C(=O)N2C1C(=O)O (centres unmarked) | Escherichia coli | broth microdilution | ATCC 35218, low-level TEM-1 | added: clavulanic acid 6 µg/mL | MIC | 100 µg/mL
Oc1c(Cl)cc(Cl)cc1-c1[nH]c(Cl)c(Cl)c1Cl | Listeria ivanovii | – | BAA-139 | – | MIC | 0.17 µM
CC(C)C[C@H](NC(=O)[C@H](Cc1c[nH]c2ccccc12)NC(=O)[C@H](CC(C)C)NC(=O)[C@@H](NC(=O)[C@H](CC(C)C)NC(=O)[C@H](CCCNC(=N)N)NC(=O)[C@@H](N)CCCNC(=N)N)[C@@H](C)O)C(=O)N[C@H](C(=O)N[C@@H](CC(C)C)C(=O)N[C@@H](CCCNC(=N)N)C(=O)N[C@@H](CCCNC(=N)N)C(N)=O)[C@@H](C)O | Lacticaseibacillus rhamnosus | – | 1.038, probiotic strain | 24 h, 37 °C, tested up to 128 µM | MIC | 128 µM
CC(C)CC1NC(=O)C(C(=O)NC(C(=O)NC2C(=O)N3C2SC(C)(C)C3C(=O)O)c2ccccc2)=C1O (centres unmarked) | Escherichia coli | broth microdilution | ATCC 35218, low-level TEM-1 | no clavulanic acid | MIC | > 200 µg/mL
CC(C)C[C@@H](NC(=O)[C@H](C)NC(=O)CNC(=O)[C@@H](NC=O)C(C)C)C(=O)N[C@@H](C)C(=O)N[C@@H](C(=O)N[C@H](C(=O)N[C@@H](C(=O)N[C@@H](Cc1c[nH]c2ccccc12)C(=O)N[C@H](CC(C)C)C(=O)N[C@@H](Cc1ccc2[nH]ccc2c1)C(=O)N[C@H](CC(C)C)C(=O)N[C@@H](Cc1c[nH]c2ccccc12)C(=O)N[C@H](CC(C)C)C(=O)N[C@@H](Cc1c[nH]c2ccccc12)C(=O)NCCO)C(C)C)C(C)C)C(C)C | Streptococcus pyogenes | broth microdilution | SSI-9 | – | MIC | 0.0083 µM
N=C(N)NCCC[C@H](NC(=O)CN)C(=O)N[C@@H](Cc1c[nH]c2ccccc12)C(=O)N[C@@H](CCCNC(=N)N)C(=O)N[C@@H](Cc1c[nH]c2ccccc12)C(=O)N[C@@H](Cc1c[nH]c2ccccc12)C(=O)N[C@@H](Cc1c[nH]c2ccccc12)C(=O)N[C@@H](CCCNC(=N)N)C(=O)N[C@@H](Cc1c[nH]c2ccccc12)C(=O)N[C@@H](CCCNC(=N)N)C(=O)N[C@@H](Cc1c[nH]c2ccccc12)C(N)=O | Candida albicans | broth microdilution | CGMCC 2.209, RPMI 1640-MOPS | 48 h, 30 °C, added: ZnCl2 8 µM | MIC | 4 µM
CC1(C)SC2C(NC(=O)C(NC(=O)C3=C(O)C(Cc4ccccc4)NC3=O)c3ccccc3)C(=O)N2C1C(=O)O (centres unmarked) | Escherichia coli | broth microdilution | JW0790-2 fiu deletion mutant | ferric iron uptake gene | MIC | 12.5 µg/mL
COC(=O)c1ccc2c(c1)NC(=O)/C2=C(\Nc1ccc(N(C)C(=O)CN2CCN(C)CC2)cc1)c1ccccc1 | human coronavirus OC43 | virus-induced cell killing | MRC-5 | maximum over 10 doses | maximum inhibition | 0%
CC(C)C[C@H](NC(=O)[C@H](CCCNC(=N)N)NC(=O)[C@H](Cc1c[nH]c2ccccc12)NC(=O)[C@H](CCCNC(=N)N)NC(=O)[C@H](Cc1c[nH]c2ccccc12)NC(=O)[C@H](Cc1c[nH]c2ccccc12)NC(=O)[C@H](Cc1c[nH]c2ccccc12)NC(=O)[C@H](CCCNC(=N)N)NC(=O)[C@H](Cc1c[nH]c2ccccc12)NC(=O)[C@H](CCCNC(=N)N)NC(=O)CN)C(N)=O | Candida albicans | broth microdilution | CGMCC 2.209, RPMI 1640-MOPS | 48 h, 30 °C, added: ZnCl2 8 µM | MIC | 32 µM
OC(Cn1cncn1)(Cn1cncn1)c1ccc(F)cc1F | Nakaseomyces glabratus | – | CG2, azole-resistant, RPMI 1640 | 24 h, 35 °C | MIC | 200 µM
CC1(C)SC2C(NC(=O)C(NC(=O)C3=C(O)C(Cc4ccco4)NC3=O)c3ccccc3)C(=O)N2C1C(=O)O (centres unmarked) | Escherichia coli | broth microdilution | Keio mutant JW0146-2 | 18 h, ferric hydroxamate uptake gene | MIC | 12.5 µg/mL
CC[C@H](C)[C@H](NC(=O)[C@H](CC(C)C)NC(=O)[C@H](CCCCN)NC(=O)[C@@H](NC(=O)[C@H](C)NC(=O)[C@H](CCC(=O)O)NC(=O)[C@H](Cc1c[nH]cn1)NC(=O)[C@@H](NC(=O)[C@H](CCCCN)NC(=O)[C@H](CCC(N)=O)NC(=O)[C@H](Cc1ccccc1)NC(=O)[C@@H](NC(=O)[C@H](CCCCN)NC(=O)[C@@H](N)CCCCN)C(C)C)[C@@H](C)CC)[C@@H](C)CC)C(N)=O | Gram-positive and Gram-negative bacteria | – | – | geometric mean | MIC | 45.1 µM
O=c1ccc2nc3ccc(OCc4ccc([N+](=O)[O-])o4)cc3oc-2c1 | Stenotrophomonas maltophilia | – | – | 24 h | MIC | > 32 µg/mL
N=C(N)c1ccc(OCc2cc(Br)cc(COc3ccc(C(=N)N)cc3)c2)cc1 | Escherichia coli | – | mcr-1 | 20 h, compound alone | MIC | 100 µg/mL
CC[C@H](C)[C@H](NC(=O)[C@H](CCCNC(=N)N)NC(=O)[C@H](Cc1c[nH]c2ccccc12)NC(=O)[C@H](CCCNC(=N)N)NC(=O)[C@H](Cc1c[nH]c2ccccc12)NC(=O)[C@H](Cc1c[nH]c2ccccc12)NC(=O)[C@H](Cc1c[nH]c2ccccc12)NC(=O)[C@H](CCCNC(=N)N)NC(=O)[C@H](Cc1c[nH]c2ccccc12)NC(=O)[C@H](CCCNC(=N)N)NC(=O)CN)C(N)=O | Candida albicans | broth microdilution | CGMCC 2.209, RPMI 1640-MOPS | 48 h, 30 °C, added: ZnCl2 8 µM | MIC | 4 µM
CC1(C)SC2C(NC(=O)C(NC(=O)C3=C(O)CN(c4ccccc4)C3=O)c3ccccc3)C(=O)N2C1C(=O)O (centres unmarked) | Escherichia coli | broth microdilution | ATCC 35218, low-level TEM-1 | no clavulanic acid | MIC | > 200 µg/mL

Some of these lines once more:
SMILES | organism | test | test system | conditions | endpoint | value
CC(C)C[C@@H](NC(=O)[C@H](C)NC(=O)CNC(=O)[C@@H](NC=O)C(C)C)C(=O)N[C@@H](C)C(=O)N[C@@H](C(=O)N[C@H](C(=O)N[C@@H](C(=O)N[C@@H](Cc1c[nH]c2ccccc12)C(=O)N[C@H](CC(C)C)C(=O)N[C@@H](Cc1ccc2[nH]ccc2c1)C(=O)N[C@H](CC(C)C)C(=O)N[C@@H](Cc1c[nH]c2ccccc12)C(=O)N[C@H](CC(C)C)C(=O)N[C@@H](Cc1c[nH]c2ccccc12)C(=O)NCCO)C(C)C)C(C)C)C(C)C | Streptococcus pyogenes | broth microdilution | SSI-9 | – | MIC | 0.0083 µM
COC(=O)c1ccc2c(c1)NC(=O)/C2=C(\Nc1ccc(N(C)C(=O)CN2CCN(C)CC2)cc1)c1ccccc1 | human coronavirus OC43 | virus-induced cell killing | MRC-5 | maximum over 10 doses | maximum inhibition | 0%
N=C(N)NCCC[C@H](NC(=O)[C@H](Cc1c[nH]c2ccccc12)NC(=O)[C@H](CCCNC(=N)N)NC(=O)[C@H](Cc1c[nH]c2ccccc12)NC(=O)[C@H](Cc1c[nH]c2ccccc12)NC(=O)[C@H](Cc1c[nH]c2ccccc12)NC(=O)[C@H](CCCNC(=N)N)NC(=O)[C@H](Cc1c[nH]c2ccccc12)NC(=O)[C@@H](N)CCCNC(=N)N)C(=O)N[C@@H](Cc1ccccc1)C(N)=O | Candida albicans | broth microdilution | CGMCC 2.209, RPMI 1640-MOPS | 48 h, 30 °C, added: NH4Cl 6 µM | MIC | 8 µM
